{"data": "Results pooled from the literature", "note": "Parts stem from different laboratories: compare values within a part only. “And” joins repeats or separate records; there may be more than shown.", "chain of UniProt Q9NRH2 (whole entry, looked up)": "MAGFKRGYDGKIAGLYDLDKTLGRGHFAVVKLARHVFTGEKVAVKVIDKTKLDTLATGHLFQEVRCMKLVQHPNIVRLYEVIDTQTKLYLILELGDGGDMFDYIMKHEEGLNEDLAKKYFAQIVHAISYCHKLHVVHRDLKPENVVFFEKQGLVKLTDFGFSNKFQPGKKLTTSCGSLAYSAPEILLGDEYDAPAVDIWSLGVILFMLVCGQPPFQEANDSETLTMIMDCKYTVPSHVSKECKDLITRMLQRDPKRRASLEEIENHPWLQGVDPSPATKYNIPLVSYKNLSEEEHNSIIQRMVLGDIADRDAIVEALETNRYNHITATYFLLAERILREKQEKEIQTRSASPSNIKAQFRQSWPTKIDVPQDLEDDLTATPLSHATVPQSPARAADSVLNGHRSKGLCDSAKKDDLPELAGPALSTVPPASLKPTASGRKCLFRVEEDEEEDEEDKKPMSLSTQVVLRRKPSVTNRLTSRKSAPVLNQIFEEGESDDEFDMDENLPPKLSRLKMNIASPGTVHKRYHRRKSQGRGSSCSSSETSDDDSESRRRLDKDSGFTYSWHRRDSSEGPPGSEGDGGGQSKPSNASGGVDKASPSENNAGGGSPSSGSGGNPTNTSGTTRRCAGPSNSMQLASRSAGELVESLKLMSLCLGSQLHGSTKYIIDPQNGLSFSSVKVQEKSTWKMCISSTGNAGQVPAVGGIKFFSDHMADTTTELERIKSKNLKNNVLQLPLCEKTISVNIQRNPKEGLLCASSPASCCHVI", "chain of UniProt Q13177 (whole entry, looked up)": "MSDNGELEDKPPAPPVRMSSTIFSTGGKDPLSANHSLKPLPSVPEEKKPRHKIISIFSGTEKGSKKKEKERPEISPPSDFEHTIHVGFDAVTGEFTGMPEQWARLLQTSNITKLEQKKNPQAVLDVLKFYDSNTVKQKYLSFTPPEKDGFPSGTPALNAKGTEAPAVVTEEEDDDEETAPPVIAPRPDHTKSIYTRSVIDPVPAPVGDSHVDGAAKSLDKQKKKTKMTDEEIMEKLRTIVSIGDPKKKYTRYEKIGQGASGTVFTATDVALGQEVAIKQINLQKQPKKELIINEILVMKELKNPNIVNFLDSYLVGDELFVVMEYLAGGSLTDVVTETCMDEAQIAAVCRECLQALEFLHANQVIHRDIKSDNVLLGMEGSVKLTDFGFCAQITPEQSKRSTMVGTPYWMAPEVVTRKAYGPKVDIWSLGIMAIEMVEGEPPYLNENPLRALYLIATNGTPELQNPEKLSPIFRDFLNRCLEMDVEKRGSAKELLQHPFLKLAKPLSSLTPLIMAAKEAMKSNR", "chain of UniProt Q15349 (whole entry, looked up)": "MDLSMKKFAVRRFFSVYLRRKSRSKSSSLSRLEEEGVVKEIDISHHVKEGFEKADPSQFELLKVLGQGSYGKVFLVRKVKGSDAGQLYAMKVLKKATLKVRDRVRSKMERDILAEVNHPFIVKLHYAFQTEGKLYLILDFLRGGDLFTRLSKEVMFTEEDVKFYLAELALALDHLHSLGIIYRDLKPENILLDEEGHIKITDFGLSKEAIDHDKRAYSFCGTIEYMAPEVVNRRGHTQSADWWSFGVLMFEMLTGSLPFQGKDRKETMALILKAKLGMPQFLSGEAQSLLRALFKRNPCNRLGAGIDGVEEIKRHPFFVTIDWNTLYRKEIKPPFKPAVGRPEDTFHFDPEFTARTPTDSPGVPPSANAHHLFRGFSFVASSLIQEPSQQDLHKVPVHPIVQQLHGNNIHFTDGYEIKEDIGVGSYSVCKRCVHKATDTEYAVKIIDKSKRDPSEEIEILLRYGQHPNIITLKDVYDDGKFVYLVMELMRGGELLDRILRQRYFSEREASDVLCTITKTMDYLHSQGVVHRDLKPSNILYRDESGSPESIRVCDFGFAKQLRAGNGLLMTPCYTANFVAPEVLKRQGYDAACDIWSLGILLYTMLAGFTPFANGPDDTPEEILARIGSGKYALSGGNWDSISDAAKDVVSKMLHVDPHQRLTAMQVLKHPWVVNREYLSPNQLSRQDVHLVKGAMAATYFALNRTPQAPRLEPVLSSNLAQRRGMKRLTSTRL", "chain of UniProt P30291 (whole entry, looked up)": "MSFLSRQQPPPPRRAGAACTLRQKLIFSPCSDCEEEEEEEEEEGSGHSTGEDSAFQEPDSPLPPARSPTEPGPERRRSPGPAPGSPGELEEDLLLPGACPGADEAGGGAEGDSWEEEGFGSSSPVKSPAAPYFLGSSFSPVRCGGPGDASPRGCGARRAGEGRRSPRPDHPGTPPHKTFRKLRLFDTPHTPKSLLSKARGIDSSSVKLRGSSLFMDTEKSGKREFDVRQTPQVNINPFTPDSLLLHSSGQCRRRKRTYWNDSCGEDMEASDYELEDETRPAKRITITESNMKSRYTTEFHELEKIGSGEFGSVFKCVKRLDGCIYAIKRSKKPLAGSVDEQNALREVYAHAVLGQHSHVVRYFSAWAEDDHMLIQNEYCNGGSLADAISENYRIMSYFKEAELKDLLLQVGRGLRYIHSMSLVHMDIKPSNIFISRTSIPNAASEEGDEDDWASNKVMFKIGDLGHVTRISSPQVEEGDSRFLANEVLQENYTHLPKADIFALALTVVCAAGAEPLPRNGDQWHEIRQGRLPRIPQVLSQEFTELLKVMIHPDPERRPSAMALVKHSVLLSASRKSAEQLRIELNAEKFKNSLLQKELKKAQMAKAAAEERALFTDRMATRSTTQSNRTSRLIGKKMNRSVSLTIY", "chain of UniProt O00329 (whole entry, looked up)": "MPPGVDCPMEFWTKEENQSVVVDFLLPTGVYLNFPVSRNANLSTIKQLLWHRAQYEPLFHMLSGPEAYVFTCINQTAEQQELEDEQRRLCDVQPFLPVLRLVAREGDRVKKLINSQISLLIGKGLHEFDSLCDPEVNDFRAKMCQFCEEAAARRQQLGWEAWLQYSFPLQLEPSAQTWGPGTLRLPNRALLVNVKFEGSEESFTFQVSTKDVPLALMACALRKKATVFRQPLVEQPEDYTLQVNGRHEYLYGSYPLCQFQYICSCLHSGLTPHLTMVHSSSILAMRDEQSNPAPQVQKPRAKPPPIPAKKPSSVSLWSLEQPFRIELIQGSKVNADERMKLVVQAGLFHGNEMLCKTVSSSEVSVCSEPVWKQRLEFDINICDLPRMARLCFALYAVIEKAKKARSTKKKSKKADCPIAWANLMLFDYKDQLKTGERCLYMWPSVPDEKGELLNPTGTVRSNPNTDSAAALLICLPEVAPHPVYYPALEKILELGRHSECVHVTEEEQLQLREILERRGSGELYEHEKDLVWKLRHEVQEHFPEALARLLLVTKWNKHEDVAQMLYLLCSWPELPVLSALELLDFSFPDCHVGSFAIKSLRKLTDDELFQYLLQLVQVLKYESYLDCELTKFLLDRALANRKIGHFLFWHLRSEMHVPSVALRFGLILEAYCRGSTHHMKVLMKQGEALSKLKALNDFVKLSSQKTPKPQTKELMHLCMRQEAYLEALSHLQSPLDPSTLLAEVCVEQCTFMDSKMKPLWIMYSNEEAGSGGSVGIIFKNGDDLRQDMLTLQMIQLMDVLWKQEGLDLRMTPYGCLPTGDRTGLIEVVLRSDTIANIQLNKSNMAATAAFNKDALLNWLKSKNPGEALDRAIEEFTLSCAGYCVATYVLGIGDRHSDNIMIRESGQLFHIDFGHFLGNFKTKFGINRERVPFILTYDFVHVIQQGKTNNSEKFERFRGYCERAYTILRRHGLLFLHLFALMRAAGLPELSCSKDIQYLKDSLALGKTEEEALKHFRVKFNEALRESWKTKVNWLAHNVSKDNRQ", "chain of UniProt P10398 (whole entry, looked up)": "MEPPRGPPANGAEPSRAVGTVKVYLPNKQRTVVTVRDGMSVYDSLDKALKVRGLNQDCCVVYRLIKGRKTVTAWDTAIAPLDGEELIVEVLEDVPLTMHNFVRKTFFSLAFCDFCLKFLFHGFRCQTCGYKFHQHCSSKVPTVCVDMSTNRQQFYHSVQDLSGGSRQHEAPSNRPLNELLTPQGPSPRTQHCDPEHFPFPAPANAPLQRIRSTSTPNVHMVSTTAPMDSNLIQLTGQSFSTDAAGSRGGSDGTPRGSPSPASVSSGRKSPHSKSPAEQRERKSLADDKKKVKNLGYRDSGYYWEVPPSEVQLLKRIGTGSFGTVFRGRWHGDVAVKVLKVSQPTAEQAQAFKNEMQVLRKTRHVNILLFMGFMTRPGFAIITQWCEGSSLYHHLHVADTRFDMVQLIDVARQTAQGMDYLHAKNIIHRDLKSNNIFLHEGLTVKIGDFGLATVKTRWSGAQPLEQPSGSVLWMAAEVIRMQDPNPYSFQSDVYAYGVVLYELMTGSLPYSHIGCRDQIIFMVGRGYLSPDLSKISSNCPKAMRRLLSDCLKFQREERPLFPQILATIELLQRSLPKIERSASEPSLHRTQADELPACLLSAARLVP", "chain of UniProt Q9Y6M4 (whole entry, looked up)": "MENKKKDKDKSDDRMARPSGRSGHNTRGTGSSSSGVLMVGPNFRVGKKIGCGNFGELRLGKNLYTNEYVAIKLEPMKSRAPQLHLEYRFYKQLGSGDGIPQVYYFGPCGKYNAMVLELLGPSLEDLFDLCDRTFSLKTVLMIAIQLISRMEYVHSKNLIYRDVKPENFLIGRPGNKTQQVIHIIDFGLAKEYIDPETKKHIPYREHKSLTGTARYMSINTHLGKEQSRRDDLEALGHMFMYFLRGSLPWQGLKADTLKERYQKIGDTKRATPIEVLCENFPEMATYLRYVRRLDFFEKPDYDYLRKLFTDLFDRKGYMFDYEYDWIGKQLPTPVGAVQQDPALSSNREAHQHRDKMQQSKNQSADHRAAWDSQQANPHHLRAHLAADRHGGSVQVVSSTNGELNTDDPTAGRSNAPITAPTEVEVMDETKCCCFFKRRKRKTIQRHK"}
{"data": "Sample 1", "SMILES": "CC(=O)N[C@@H](Cc1c[nH]c2ccccc12)C(=O)N[C@@H](CCC(=O)C=[N+]=[N-])C(=O)OC(C)C"}
{"test system": "mice, MC-38 tumour rechallenge", "conditions": "1 mg/kg, day 11 after injection", "tumour volume": "8.79 mm3 and 0 mm3"}
{"test system": "CES1-/- mice, OVA-expressing MC-38 tumour", "conditions": "dose not given, day 19 after injection", "tumour volume": "122 mm3 and 43 mm3 and 109 mm3 and 0 mm3 and 11 mm3"}
{"test system": "mice, MC-38 tumour rechallenge", "conditions": "0.26 mg/kg, day 21 after injection", "tumour volume": "0 mm3"}
{"data": "Sample 2", "SMILES": "O=C1NC(=O)c2c1c1c3ccccc3[nH]c1n1cncc21", "observed": "enzyme activity", "mode": "inhibitor", "concentration": "0.5 µM", "baseline": "control"}
{"target": "CSNK1G3 (Homo sapiens, UniProt Q9Y6M4)", "remaining activity [%]": 87}
{"target": "FGFR3 (Homo sapiens, UniProt P22607)", "remaining activity [%]": 85}
{"target": "FGFR1 (Homo sapiens, UniProt P11362)", "remaining activity [%]": 55.2}
{"target": "MAP3K14 (Homo sapiens, UniProt Q99558)", "remaining activity [%]": 83}
{"target": "MAPK3 (Homo sapiens, UniProt P27361)", "remaining activity [%]": 87.8}
{"target": "NEK6 (Homo sapiens, UniProt Q9HC98)", "remaining activity [%]": 88.7}
{"target": "MAP2K2 (Homo sapiens, UniProt P36507)", "remaining activity [%]": 85.9}
{"target": "ULK2 (Homo sapiens, UniProt Q8IYT8)", "remaining activity [%]": 95.5}
{"target": "RPS6KA2 (Homo sapiens, UniProt Q15349)", "remaining activity [%]": 32.7}
{"target": "TBK1 (Homo sapiens, UniProt Q9UHD2)", "remaining activity [%]": 81.9}
{"target": "FRK (Homo sapiens, UniProt P42685)", "remaining activity [%]": 96.8}
{"target": "ACVR1B (Homo sapiens, UniProt P36896)", "remaining activity [%]": 103}
{"target": "ARAF (Homo sapiens, UniProt P10398)", "remaining activity [%]": 93.8}
{"target": "WEE1 (Homo sapiens, UniProt P30291)", "remaining activity [%]": 94.7}
{"data": "Sample 3", "Compound": "C[C@H](c1ccc(F)cc1)N(Cc1cccc(C(=O)O)c1)C(=O)c1cnc2ccccc2c1", "method": "competition with immobilised ligand", "concentration": "1 µM"}
{"target": "TNK1 (Homo sapiens, UniProt Q13470)", "test": "cell-free assay", "remaining binding": "100%"}
{"target": "PAK2 (Homo sapiens, UniProt Q13177)", "test": "cell-free assay", "remaining binding": "100%"}
{"target": "SNRK (Homo sapiens, UniProt Q9NRH2)", "test": "cell-free assay", "remaining binding": "96%"}
{"target": "PIK3CD (Homo sapiens, UniProt O00329)", "test": "cell-free assay", "remaining binding": "100%"}
{"target": "RAF1 (Homo sapiens, UniProt P04049)", "test": "cell-free assay", "remaining binding": "100%"}
{"target": "CILK1 (Homo sapiens, UniProt Q9UPZ9)", "test": "binding", "remaining binding": "100%"}
{"target": "CLK4 (Homo sapiens, UniProt Q9HAZ1)", "test": "cell-free assay", "remaining binding": "66%"}
{"data": "Sample 4", "species": "human", "matrix": "microsomes or S9", "concentration": "2 µM", "time": "0.5 h"}
{"SMILES": "c1ccc(CCNCc2cccc(Oc3nnnn3-c3ccccc3)c2)cc1", "remaining compound [%]": 9.19}
{"SMILES": "CCOC(=O)C(OC(C)(C)C)c1c(C)nc2c(Br)c(C)nn2c1-c1ccc(Cl)cc1 (stereo not drawn)", "remaining compound [%]": 73.2}
{"SMILES": "CCOc1cc(=O)n2c(c1C(=O)N1CCN(C3CCCCC3)CC1)CCCCC2", "remaining compound [%]": 71.6}
{"SMILES": "Cc1c[nH]c(CN(C)C(=O)c2cc(CC(C)C)no2)n1", "remaining compound [%]": 96}
{"SMILES": "Cc1cc2cc(CN(Cc3cccs3)S(=O)(=O)c3ccc(F)cc3)c(=O)[nH]c2cc1C", "remaining compound [%]": 9.48}
{"SMILES": "Cc1nc(NC(C)Cc2ccccc2)c2sc3nc4c(cc3c2n1)COC(C)(C)C4 (stereo not drawn)", "remaining compound [%]": 81.9}
{"note": "Excerpt of the above (sample 4):"}
{"SMILES": "Cc1cc2cc(CN(Cc3cccs3)S(=O)(=O)c3ccc(F)cc3)c(=O)[nH]c2cc1C", "remaining compound [%]": 9.48}
{"SMILES": "CCOc1cc(=O)n2c(c1C(=O)N1CCN(C3CCCCC3)CC1)CCCCC2", "remaining compound [%]": 71.6}
